Experimental data of several laboratories.
Compare with care: the assays were run in different laboratories.

SMILES | assay | system | setting | adverse event incidence
Cc1c(Cl)c(C)[n+]([O-])c(Cl)c1-c1noc(-c2cc(O)c(O)c([N+](=O)[O-])c2)n1 | measured: Severe severity | healthy Caucasian subjects | oral, 50 mg, 10 days | 0%
Cc1ccc(Sc2ccccc2N2CCNCC2)c(C)c1 | TEAE abdominal distension | healthy adult men | oral, 5 mg single dose, 10 days | 0%
Cc1c(C(=O)O)ccc2c3n(nc12)[C@@H]1[C@H](C3)N(CC2CC2)[C@@]2(C(=O)Nc3cc(Cl)ccc32)[C@H]1c1cccc(Cl)c1F | phase Ia trial, measured: Dizziness | cancer patients | oral, dose not given, all patients all grades | 14.8%
CC(=O)O[C@H]1C(=O)[C@@]2(C)[C@H]([C@H](OC(=O)c3ccccc3)[C@]3(O)C[C@H](OC(=O)[C@H](O)[C@@H](NC(=O)c4ccccc4)c4ccccc4)C(C)=C1C3(C)C)[C@]1(OC(C)=O)CO[C@@H]1C[C@@H]2O | measured: Rash | patients with advanced solid tumours | intravenous, dose not given, grade 1 and 2, possibly related to drug | 13%
O=C1CCc2ccc(OCCCCN3CCN(c4cccc(Cl)c4Cl)CC3)cc2N1 | measured: Akathisia | genotyped patients, CYP2D6 normal metabolizers | dose not given, long-acting oral or depot | 1.7%
FC(F)(F)c1ccc(CNc2ccc(Cc3c[nH]c4ncc(Cl)cc34)cn2)cn1 | measured: Hypertension | patients with advanced solid tumours | oral, dose not given, grade 3 and 4, possibly related to drug | 11%
NCCONC(=O)[C@@H]1CC[C@@H]2CN1C(=O)N2OS(=O)(=O)O | measured: leading to temporary interruption | healthy Chinese men | intravenous, 1 g, treatment-emergent | 0%
C[C@H]1[C@H]2N(C(=O)CN(C)N2C(=O)NCc2ccccc2)[C@@H](Cc2ccc(OP(=O)(O)O)cc2)C(=O)N1Cc1cccc2cccnc12 | measured: Fever | HIV/HCV haemophilia cirrhosis | concentration not given, phase I trial | 60%
CC[C@H](C)CCCCC(=O)N[C@@H](CCN)C(=O)N[C@H](C(=O)N[C@@H](CCN)C(=O)N[C@H]1CCNC(=O)[C@H]([C@@H](C)O)NC(=O)[C@H](CCN)NC(=O)[C@H](CCN)NC(=O)[C@H](CC(C)C)NC(=O)[C@@H](Cc2ccccc2)NC(=O)[C@H](CCN)NC1=O)[C@@H](C)O | measured: infections and infestations | long-term IHD patients | intravenous, 0.75 mg/kg | 14.3%
CCO[C@H]1CCN(Cc2c(OC)cc(C)c3[nH]ccc23)[C@H](c2ccc(C(=O)O)cc2)C1 | measured: abdominal distension | PNH patients with active haemolysis | oral, 100 mg, extension phase | 0%

For quick reference, copied from above:
SMILES | assay | system | setting | adverse event incidence
O=C1CCc2ccc(OCCCCN3CCN(c4cccc(Cl)c4Cl)CC3)cc2N1 | measured: Akathisia | genotyped patients, CYP2D6 normal metabolizers | dose not given, long-acting oral or depot | 1.7%
